Measurements pooled from the literature.
Parts stem from different laboratories: compare values within a part only.

Series 1 — method: protein binding microarray; molecule type: double-stranded DNA, one strand shown; matrix: in vitro; concentration: not given; reference: not given; reading: higher = stronger binding
Target: Histone acetyltransferase KAT6A, winged helix 2, GST fusion (KAT6A, Homo sapiens, UniProt Q92794, residues 85-181)
Setting: 8-mer, flanks averaged, mean of 2 arrays, mostly near background
Residues (chain): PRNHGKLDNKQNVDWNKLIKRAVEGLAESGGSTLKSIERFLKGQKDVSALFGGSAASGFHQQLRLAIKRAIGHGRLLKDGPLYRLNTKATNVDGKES
Oligonucleotide	E-score
GATGATAC	0.0778
AACGGCTA	-0.0784
CCGTGGCC	0.109
AAGCGCTT	0.273
GACGGACC	0.0771
AACGTCCA	-0.166
AGGCTAAC	-0.0712
ATTTCAGA	-0.00036
CCTATCAC	-0.088
GGTCTCCA	0.00154
ACAGACTC	-0.155
ACTCTAAT	-0.069
CCGCTCTA	0.029

Series 2 — method: protein-binding microarray; molecule type: double-stranded DNA, one strand shown; matrix: in vitro; concentration: not given; reading: higher = stronger binding
Target: Protein C-ets-1 (ETS1, Homo sapiens, UniProt P14921, residues 1-441, K379A, full length assumed)
Setting: k-mer, scored over probes, only values ≥0.25
Target sequence (chain): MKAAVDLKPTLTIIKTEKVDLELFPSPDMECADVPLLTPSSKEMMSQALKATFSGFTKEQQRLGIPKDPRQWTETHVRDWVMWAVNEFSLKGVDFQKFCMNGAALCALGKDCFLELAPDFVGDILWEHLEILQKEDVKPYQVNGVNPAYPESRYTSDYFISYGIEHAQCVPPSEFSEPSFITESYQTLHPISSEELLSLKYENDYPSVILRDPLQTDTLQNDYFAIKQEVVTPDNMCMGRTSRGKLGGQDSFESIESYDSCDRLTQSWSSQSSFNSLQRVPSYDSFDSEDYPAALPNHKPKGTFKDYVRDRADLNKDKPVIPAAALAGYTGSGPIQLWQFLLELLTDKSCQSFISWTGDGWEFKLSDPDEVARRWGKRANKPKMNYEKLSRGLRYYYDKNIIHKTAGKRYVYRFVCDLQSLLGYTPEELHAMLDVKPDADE
Oligonucleotide	E-score
ATATACAC	0.257
ACCCGGTA	0.381
CACAGTTA	0.263
CCCGGTCA	0.357
CCGCCCCG	0.428
CGTGTCGC	0.277
CCTCCCCG	0.323

Series 3 — method: RNA Bind-n-Seq; molecule type: RNA; matrix: in vitro; concentration: 200 nM; setting: whole 134-nt RNA, ends assumed; with: 150 mM KCl; reference: input library; reading: higher = stronger binding
Target: Ras GTPase-activating protein-binding protein 1, full length (G3BP1, Homo sapiens, UniProt Q13283)
Sequence of UniProt Q13283 (whole entry, looked up): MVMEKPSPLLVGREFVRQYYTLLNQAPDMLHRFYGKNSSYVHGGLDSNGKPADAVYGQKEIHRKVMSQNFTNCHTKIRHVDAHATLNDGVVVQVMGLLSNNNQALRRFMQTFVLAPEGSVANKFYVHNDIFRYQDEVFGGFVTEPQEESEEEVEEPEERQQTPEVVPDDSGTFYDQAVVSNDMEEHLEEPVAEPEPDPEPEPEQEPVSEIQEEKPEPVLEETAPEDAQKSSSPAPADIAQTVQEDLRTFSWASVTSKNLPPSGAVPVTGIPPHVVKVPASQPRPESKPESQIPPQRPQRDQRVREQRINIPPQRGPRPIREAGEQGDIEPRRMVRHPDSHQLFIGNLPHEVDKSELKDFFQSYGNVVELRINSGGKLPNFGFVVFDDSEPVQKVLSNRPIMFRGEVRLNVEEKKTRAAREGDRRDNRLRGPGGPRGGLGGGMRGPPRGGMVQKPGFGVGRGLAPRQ
All sequences stand within: GGGAGUUCUACAGUCCGACGAUC … UGGAAUUCUCGGGUGUCAAGG
Oligonucleotide	log2 enrichment
CUCAAGUCCUGUGCUACACAUCGUAUGUACCGAAUCGGUGGAAAAAGGUUUGGAAAGUAUUAUGUUACGCCGUUCGGAUCUGCACUUCCA	-0.71
UUUGUCCCUGCUCAGGAUGAGACUUCUGUGAGCAGCGAGGAUUUUGAUAUGAGCGACUCCACAUGGAUGUCAGCUGACCCGCACCUGGCC	-0.184
UCAAGUCCUGUGCUACACAUCGUAUGUACCGAAUCGGGUUGGGGUUGGUUGGGGAAAGUAUUAUGUUACGCCGUUCGGAUCUGCACUUCC	0.666
CCUGUGCUACACAUCGUAUGUACCGAAUCGGGCCCCCCGGGGCCCCCCGGGCCCCCCGGGGAAAGUAUUAUGUUACGCCGUUCGGAUCUG	-0.848
AAGUCCUGUGCUACACAUCGUAUGUACCGAAUCGGGGCCCCGGCCCCGGCCCCGGGAAAGUAUUAUGUUACGCCGUUCGGAUCUGCACUU	-0.975
UCAAGUCCUGUGCUACACAUCGUAUGUACCGAAUCGGAAGGGGAAGGGGAAGGGGAAAGUAUUAUGUUACGCCGUUCGGAUCUGCACUUC	0.807
UCCCUGUCCAAGCUGAGCGCCCUCAACGAGAGCCUUGCUCAGGACAAGUUGGAUCUGAACUGCCUUGUCACCCAGGUACACUGUGCACCU	0.848
CAAGUCCUGUGCUACACAUCGUAUGUACCGAAUCGGGCCCGGCCCGGGGCCCGGGGAAAGUAUUAUGUUACGCCGUUCGGAUCUGCACUU	-0.763
UCAAGUCCUGUGCUACACAUCGUAUGUACCGAAUCGGGUUUGGGAGGGAAAGGGAAAGUAUUAUGUUACGCCGUUCGGAUCUGCACUUCC	0.966

Single results of other studies
Molecule	target	test	system	conditions	scale	endpoint	value
PhoQ, residues 284 288 289 292 302 303 AQGLTV	PhoP, residues 12 14 15 18 19 IQFRS (Escherichia coli, UniProt P23836)	Sort-seq, measured: YFP reporter	E. coli	PhoQ-PhoP variant library, with: 10 µM Mg2+	reference: high Mg2+ state, higher = stronger signaling	fold induction	2.85

Repeated from above (series 1):
Oligonucleotide	E-score
GATGATAC	0.0778
ACTCTAAT	-0.069
